Published values from different studies.
Each line is one published result; not all experiments were run side by side. Values joined by “and” are separate records of one study, mostly repeats; a detail may differ. ± marks the error that the study gave.
Genome polyprotein NS3 helicase domain: Genome polyprotein, NS3 helicase domain (Hepatitis C virus genotype 1b, UniProt Q9WMX2)
TLE4: Transducin-like enhancer protein 4 (TLE4, Homo sapiens, UniProt Q04727)
Glutamate receptor 2: Glutamate receptor 2 (Homo sapiens, UniProt P42262)
WD repeat-containing protein 91 WD40 domain, residues 392–747: WD repeat-containing protein 91, WD40 domain, residues 392–747 (Homo sapiens, UniProt A4D1P6)
Chain of UniProt O76090 (whole entry, unmodified, looked up): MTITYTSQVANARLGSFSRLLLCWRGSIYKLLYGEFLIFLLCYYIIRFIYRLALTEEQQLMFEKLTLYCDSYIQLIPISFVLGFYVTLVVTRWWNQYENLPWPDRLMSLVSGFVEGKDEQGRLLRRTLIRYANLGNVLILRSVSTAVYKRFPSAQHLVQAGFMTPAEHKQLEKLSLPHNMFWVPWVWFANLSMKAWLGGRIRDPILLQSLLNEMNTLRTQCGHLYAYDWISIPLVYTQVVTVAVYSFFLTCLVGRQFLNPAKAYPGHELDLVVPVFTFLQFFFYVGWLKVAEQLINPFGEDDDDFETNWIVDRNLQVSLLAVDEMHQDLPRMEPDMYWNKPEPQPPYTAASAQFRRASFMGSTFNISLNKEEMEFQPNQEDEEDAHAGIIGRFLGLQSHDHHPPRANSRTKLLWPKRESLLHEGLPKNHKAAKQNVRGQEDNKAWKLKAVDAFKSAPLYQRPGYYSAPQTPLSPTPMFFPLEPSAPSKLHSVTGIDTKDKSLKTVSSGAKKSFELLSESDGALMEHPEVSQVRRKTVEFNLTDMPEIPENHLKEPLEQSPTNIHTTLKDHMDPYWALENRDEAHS
Chain of UniProt A4D1P6 (whole entry, looked up): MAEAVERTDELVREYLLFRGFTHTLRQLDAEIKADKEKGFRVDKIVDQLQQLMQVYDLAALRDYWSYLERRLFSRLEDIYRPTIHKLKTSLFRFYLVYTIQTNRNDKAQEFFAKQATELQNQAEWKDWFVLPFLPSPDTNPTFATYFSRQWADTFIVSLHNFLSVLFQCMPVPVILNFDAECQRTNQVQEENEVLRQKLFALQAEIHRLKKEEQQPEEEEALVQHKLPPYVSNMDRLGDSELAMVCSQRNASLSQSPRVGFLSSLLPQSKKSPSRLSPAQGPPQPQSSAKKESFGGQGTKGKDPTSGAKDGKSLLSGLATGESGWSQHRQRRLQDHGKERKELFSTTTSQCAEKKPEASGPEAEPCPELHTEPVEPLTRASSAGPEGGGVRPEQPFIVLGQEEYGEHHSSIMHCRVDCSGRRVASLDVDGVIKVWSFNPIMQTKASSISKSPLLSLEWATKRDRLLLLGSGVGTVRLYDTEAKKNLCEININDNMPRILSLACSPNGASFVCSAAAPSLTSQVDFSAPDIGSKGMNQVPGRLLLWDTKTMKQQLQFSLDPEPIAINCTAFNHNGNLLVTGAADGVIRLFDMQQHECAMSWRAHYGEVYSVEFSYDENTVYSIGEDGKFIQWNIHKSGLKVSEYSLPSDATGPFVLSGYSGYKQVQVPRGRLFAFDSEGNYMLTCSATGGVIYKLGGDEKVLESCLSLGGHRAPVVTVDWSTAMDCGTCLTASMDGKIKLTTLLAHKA
Chain of UniProt Q64663 (whole entry, unmodified, looked up): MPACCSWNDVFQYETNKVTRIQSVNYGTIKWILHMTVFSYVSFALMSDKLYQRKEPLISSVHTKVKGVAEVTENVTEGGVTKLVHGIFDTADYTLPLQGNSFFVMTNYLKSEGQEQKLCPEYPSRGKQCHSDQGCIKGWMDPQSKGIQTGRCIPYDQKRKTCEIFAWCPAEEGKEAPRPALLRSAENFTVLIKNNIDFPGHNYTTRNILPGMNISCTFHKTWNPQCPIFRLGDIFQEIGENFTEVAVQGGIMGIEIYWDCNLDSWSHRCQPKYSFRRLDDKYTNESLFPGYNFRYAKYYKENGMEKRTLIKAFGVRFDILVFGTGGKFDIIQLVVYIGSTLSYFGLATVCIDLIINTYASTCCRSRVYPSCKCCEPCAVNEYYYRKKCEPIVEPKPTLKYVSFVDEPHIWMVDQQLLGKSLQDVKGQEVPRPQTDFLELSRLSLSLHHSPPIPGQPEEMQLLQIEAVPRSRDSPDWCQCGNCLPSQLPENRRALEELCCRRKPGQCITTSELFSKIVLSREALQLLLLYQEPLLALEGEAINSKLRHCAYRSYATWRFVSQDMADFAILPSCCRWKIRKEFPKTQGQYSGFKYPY

For `NCCCCC(NC(=O)CNC(=O)Cc1ccccc1)C(=O)O` (centres unmarked), the product formation was 1.84 µM (N-alpha-acetyltransferase 80 (NAA80, Homo sapiens, UniProt Q93015); substrate, DTNB; 2 mM, 30 min, 37 °C, added: acetyl-CoA 500 µM).
For `Nc1ccc(C(=O)O)cc1`, the current density was 12 pA/pF and 32.9 pA/pF and 18.7 pA/pF and 7.82 pA/pF and 11.7 pA/pF and 22.3 pA/pF (BEST1, with wild-type BEST1 (Homo sapiens, UniProt O76090, Q293K); ion current, whole-cell patch clamp; HEK293 co-expressing mutant and wild-type; concentration not given, voltage 80 mV).
With `CC[C@H](C)[C@H](NC(=O)[C@H](CCCCN)NC(=O)CNC(=O)[C@@H](NC(=O)[C@@H](NC(=O)[C@H](CCSC)NC(=O)[C@H](Cc1c[nH]cn1)NC(=O)CN)[C@@H](C)O)C(C)C)C(=O)N[C@@H](Cc1ccc(O)cc1)C(=O)N[C@@H](C)C(=O)N[C@@H](C)C(=O)N[C@@H](CCSC)C(=O)N[C@@H](CCSC)C(=O)N[C@H](C(=O)N[C@@H](CCSC)C(=O)N[C@@H](CCC(=O)O)C(=O)N[C@@H](Cc1ccc(O)cc1)C(=O)N[C@@H](Cc1ccc(O)cc1)C(=O)N[C@@H](CCCNC(=N)N)C(=O)N[C@@H](CCC(N)=O)C(=O)N[C@@H](CO)C(=O)N[C@@H](CCCCN)C(=O)N[C@@H](C)C(=O)N[C@@H](CCCCN)C(=O)N[C@@H](CCCCN)C(=O)N[C@@H](CC(C)C)C(=O)N[C@@H](CCC(N)=O)C(=O)N[C@@H](C)C(=O)N[C@@H](CCSC)C(=O)N[C@@H](CCCNC(=N)N)C(=O)O)[C@@H](C)CC` the binding stoichiometry was 0.75 ± 0.03 (Calmodulin-1, Ca2+-bound C-lobe (CALM1, Homo sapiens, UniProt P0DP23); competition ITC; concentration not given, 15 °C, added: pre-formed Ca2+/N-lobe–CaV2.1 IQ complex).
With `Nc1ncnc2c1ncn2[C@@H]1O[C@H](COP(=O)(O)OP(=O)(O)O)[C@@H](O)[C@H]1O` the ΔH was -0.13 kcal/mol (GUK1 (Homo sapiens, UniProt Q16774); binding, isothermal titration calorimetry; molar ratio 3.279, fitted curve).
`CC[C@H](C)[C@H](NC(=O)[C@H](CCCCN)NC(=O)CNC(=O)[C@@H](NC(=O)[C@@H](NC(=O)[C@H](CCSC)NC(=O)[C@H](Cc1c[nH]cn1)NC(=O)CN)[C@@H](C)O)C(C)C)C(=O)N[C@@H](Cc1ccc(O)cc1)C(=O)N[C@@H](C)C(=O)N[C@@H](C)C(=O)N[C@@H](CCSC)C(=O)N[C@@H](CCSC)C(=O)N[C@@H](C)C(=O)N[C@@H](CCSC)C(=O)N[C@@H](CCC(=O)O)C(=O)N[C@@H](Cc1ccc(O)cc1)C(=O)N[C@@H](Cc1ccc(O)cc1)C(=O)N[C@@H](CCCNC(=N)N)C(=O)N[C@@H](CCC(N)=O)C(=O)N[C@@H](CO)C(=O)N[C@@H](CCCCN)C(=O)N[C@@H](C)C(=O)N[C@@H](CCCCN)C(=O)N[C@@H](CCCCN)C(=O)N[C@@H](CC(C)C)C(=O)N[C@@H](CCC(N)=O)C(=O)N[C@@H](C)C(=O)N[C@@H](CCSC)C(=O)N[C@@H](CCCNC(=N)N)C(=O)O` gave a stoichiometry of 0.82 ± 0.01 (Calmodulin-1, Ca2+-bound N-lobe (CALM1, Homo sapiens, UniProt P0DP23); binding, isothermal titration calorimetry; pH 7.4, 15 °C, N-lobe, CaV2.1 IQ domain, added: Ca2+).
`CCCCCCSC[C@H]1CN(Cc2c[nH]c3c(N)ncnc23)C[C@@H]1O` gave a k4 of 0.032 ± 0.004 min⁻¹ (Aminodeoxyfutalosine nucleosidase (Helicobacter pylori, UniProt Q9ZMY2); radiolabel chase ultrafiltration; pH 7.4, inhibitor off-rate).
With `C=C1C(=O)O[C@@H]2C[C@@]3(C)CCCC(=C)[C@@H]3C[C@H]12` the activation was 0.96 fold (Nuclear receptor subfamily 4 group A member 3, ligand-binding domain (Homo sapiens, UniProt Q92570); reporter gene, Gal4 hybrid reporter; 10 µM; baseline: vehicle).
Under “Pearson correlation coefficient”, `CC(=C/C(=O)O)/C=C/C=C(\C)C1C=C2C(C)(C)CCCC2(C)O1` (centres unmarked) is recorded as 0.47 (Rhodopsin (RHO, Homo sapiens, UniProt P08100, T17M); ER retention, immunostaining co-localization, refers to: opsin with calnexin; COS-7 transfected T17M; 30.00 µM).
`O=C(O)C1CCCNC1` (centres unmarked): “normalised MST signal” 0.511 (SLC6A6 (Homo sapiens, UniProt P31641, G62A); binding, microscale thermophoresis; 500 µM, room temperature, added: 50 nM labelled protein; higher = more binding).
For `C[N+](C)(C)CCOC(=O)CCC(=O)OCC[N+](C)(C)C`, the inhibition was 2% (Genome polyprotein NS3 helicase domain; DNA binding, inhibitor; hepatitis C virus; 100 µM, added: Cy5-dT15 DNA).
`Cc1cccc(N2CC(C(=O)O)CC2=O)c1` (centres unmarked): “log fold enrichment” -0.145 (TLE4; binding, affinity selection mass spectrometry; baseline: other proteins in batch).
With `Nc1ncnc2c1ncn2[C@@H]1O[C@H](COP(=O)(O)CP(=O)(O)OP(=O)(O)O)[C@@H](O)[C@H]1O` the calcium influx was 0.461% and 0% and 1.72% and 0.551% (P2X purinoceptor 1 (P2RX1, Homo sapiens, UniProt P51575, M214A); calcium influx; 31.6 nM; baseline: ionomycin response).
`COc1ccc(F)cc1C(=O)NCc1ccc(-c2nn([C@@H](C)C(F)(F)F)c(N)c2C(N)=O)cc1` has a remaining activity of 103 ± 8.3% (ITK (Homo sapiens, UniProt Q08881); kinase activity, inhibitor, HotSpot radiometric; 1000 nM, added: ATP at Km).
The ΔS of `COc1cc(/C=C2\CCC/C(=C\c3ccc(O)c(OC)c3)C2=O)ccc1O` is reported as -199.1 ± 1.83 J/(mol·K) (haemin; binding, isothermal titration calorimetry; pH 7.4, 37 °C).
For `CC(=O)N[C@H](C(=O)N1C[C@H](O)C[C@H]1C(=O)NCc1ccc(-c2scnc2C)cc1)C(C)(C)SCCCCCCNC(=O)C[C@@H]1N=C(c2ccc(Cl)cc2)c2c(sc(C)c2C)-n2c(C)nnc21`, the −TΔS was -6.4 ± 0.3 kcal/mol (BRD2/VHL, BD1; with VCB (Homo sapiens, UniProt P25440+P40337); ITC; 25 °C, BRD2 BD1, ternary).
`Cn1c(=O)c2[nH]cnc2n(C)c1=O` has an activation of 2% (Glutamate receptor 2; ion current, agonist, SyncroPatch patch clamp; HEK293; 10 µM).
`Nc1ncnc2c1ncn2[C@@H]1O[C@H](COP(=O)(O)OP(=O)(O)OP(=O)(O)O)[C@@H](O)[C@H]1O` gave a normalized current of 0.92 and 0.8 and 0.72 (P2X purinoceptor 7 (P2rx7, Rattus norvegicus, UniProt Q64663); ion current, agonist, two-electrode voltage clamp; Xenopus laevis oocytes; 30 µM; baseline: 100 µM compound response).
With `CC(NCCc1ccc(O)cc1)C(O)c1ccc(O)cc1` (centres unmarked) the inhibition was 0% (Genome polyprotein NS3 helicase domain; DNA binding, inhibitor; hepatitis C virus; 100 µM, added: Cy5-dT15 DNA).
For `N#CC1CCN(C(=O)c2ccc(SCc3nc4ccccc4[nH]3)cc2)CC1`, the binding was 0% and -7% (WD repeat-containing protein 91 WD40 domain, residues 392–747; SPR; 45 µM).
For `O=C1NC(=O)C(c2ccccc2)(c2ccccc2)N1`, the inhibition was 1% (Glutamate receptor 2; ion current, negative allosteric modulator, SyncroPatch patch clamp; HEK293; 30 µM).
`NC(=O)c1ccccc1` has an inhibition of 0% (Genome polyprotein NS3 helicase domain; DNA binding, inhibitor; hepatitis C virus; 100 µM, added: Cy5-dT15 DNA).
`CCCCCCCCCCc1ccc([C@H]2CC[C@H]([N+](C)(C)CCC)CC2)cc1.[I-]` gave a Ki/Km ratio of 3.5 (SPHK1 (Homo sapiens, UniProt Q9NYA1); inhibitor, radiometric flash-plate; cell lysate; added: sphingosine 10 µM).
Under “bimolecular quenching constant”, `CCS(=O)(=O)N1CC(CC#N)(n2cc(-c3ncnc4[nH]ccc34)cn2)C1` is recorded as 4.75e+12 ± 2.6e+11 M⁻¹ s⁻¹ (ORM1 (Homo sapiens, UniProt P02763); fluorescence quenching; 303 K).
With `NS(=O)(=O)C#Cc1ccccc1` the inhibition was 0% (Genome polyprotein NS3 helicase domain; DNA binding, inhibitor; hepatitis C virus; 100 µM, added: Cy5-dT15 DNA).
`O=c1nc(SCc2cc(F)cc(C(F)(F)F)c2)nc(SCc2csc3ccc(Cl)cc23)[nH]1` gave a linear DNA of 0.51% (TOP2A (Homo sapiens, UniProt P11388); DNA cleavage; 15.6 µM, replicate 2).
`COc1cc(F)ccc1-c1ncnc(Nc2cccc(C[S@](C)(=N)=O)c2)n1` gave a remaining activity of 75% (BRSK2 (Homo sapiens, UniProt Q8IWQ3); kinase activity; 10 µM, added: 10 µM ATP).
The selectivity ratio of `O=C(O)[C@H]1O[C@@H](Oc2cc3oc(-c4ccccc4)cc(=O)c3c(O)c2O)[C@H](O)[C@@H](O)[C@@H]1O` is reported as 1.04 (Estrogen receptor (ESR1, Homo sapiens, UniProt P03372); array formation; PRL-HeLa; baseline: EC50 ERβ over EC50 ERα).
For `COc1cc([C@@H]2c3cc4c(cc3[C@@H](O[C@@H]3O[C@@H]5CO[C@@H](C)O[C@H]5[C@H](O)[C@H]3O)[C@H]3COC(=O)[C@H]23)OCO4)cc(OC)c1O`, the inhibition was 2% (Genome polyprotein NS3 helicase domain; DNA binding, inhibitor; hepatitis C virus; 100 µM, added: Cy5-dT15 DNA).
With `COc1c(C#N)cccc1CC(=O)Nc1ccc2c(c1)CCCN2C(=O)c1ccccc1` the binding was 126% and 118% (WD repeat-containing protein 91 WD40 domain, residues 392–747; SPR; 45 µM).
`Cc1ccc(N2CC(C(N)=O)CC2=O)cc1` (centres unmarked): “log fold enrichment” -0.114 (TLE4; binding, affinity selection mass spectrometry; baseline: other proteins in batch).
For `O=C(c1cc2cccn2cn1)N1CCN(c2ccc([N+](=O)[O-])c3cnccc23)CC1`, the binding was 29% and 11% (WD repeat-containing protein 91 WD40 domain, residues 392–747; SPR; 45 µM).
`CC[C@@H]1[C@H](F)C(=O)N[C@@H]1COc1nccc2cc(C(N)=O)c(OC)cc12` gave an inhibition of -9.4% (MAP2K4 (Homo sapiens, UniProt P45985); ATP-site probe binding, ActivX profiling; THP-1 cell lysate; 0.01 mM, Lys1 site).

Repeated from above:
With `CC(NCCc1ccc(O)cc1)C(O)c1ccc(O)cc1` (centres unmarked) the inhibition was 0% (Genome polyprotein NS3 helicase domain; DNA binding, inhibitor; hepatitis C virus; 100 µM, added: Cy5-dT15 DNA).
`Nc1ncnc2c1ncn2[C@@H]1O[C@H](COP(=O)(O)OP(=O)(O)OP(=O)(O)O)[C@@H](O)[C@H]1O` gave a normalized current of 0.92 and 0.8 and 0.72 (P2X purinoceptor 7 (P2rx7, Rattus norvegicus, UniProt Q64663); ion current, agonist, two-electrode voltage clamp; Xenopus laevis oocytes; 30 µM; baseline: 100 µM compound response).
`CC[C@H](C)[C@H](NC(=O)[C@H](CCCCN)NC(=O)CNC(=O)[C@@H](NC(=O)[C@@H](NC(=O)[C@H](CCSC)NC(=O)[C@H](Cc1c[nH]cn1)NC(=O)CN)[C@@H](C)O)C(C)C)C(=O)N[C@@H](Cc1ccc(O)cc1)C(=O)N[C@@H](C)C(=O)N[C@@H](C)C(=O)N[C@@H](CCSC)C(=O)N[C@@H](CCSC)C(=O)N[C@@H](C)C(=O)N[C@@H](CCSC)C(=O)N[C@@H](CCC(=O)O)C(=O)N[C@@H](Cc1ccc(O)cc1)C(=O)N[C@@H](Cc1ccc(O)cc1)C(=O)N[C@@H](CCCNC(=N)N)C(=O)N[C@@H](CCC(N)=O)C(=O)N[C@@H](CO)C(=O)N[C@@H](CCCCN)C(=O)N[C@@H](C)C(=O)N[C@@H](CCCCN)C(=O)N[C@@H](CCCCN)C(=O)N[C@@H](CC(C)C)C(=O)N[C@@H](CCC(N)=O)C(=O)N[C@@H](C)C(=O)N[C@@H](CCSC)C(=O)N[C@@H](CCCNC(=N)N)C(=O)O` gave a stoichiometry of 0.82 ± 0.01 (Calmodulin-1, Ca2+-bound N-lobe (CALM1, Homo sapiens, UniProt P0DP23); binding, isothermal titration calorimetry; pH 7.4, 15 °C, N-lobe, CaV2.1 IQ domain, added: Ca2+).
With `Nc1ncnc2c1ncn2[C@@H]1O[C@H](COP(=O)(O)OP(=O)(O)O)[C@@H](O)[C@H]1O` the ΔH was -0.13 kcal/mol (GUK1 (Homo sapiens, UniProt Q16774); binding, isothermal titration calorimetry; molar ratio 3.279, fitted curve).
